Measured values collected from several papers.
“And” joins repeats or separate records; there may be more than shown. ± gives the spread as reported.
NPY1R D287N: Neuropeptide Y receptor type 1 (NPY1R, Homo sapiens, UniProt P25929, D287N)
Chain of UniProt P25929 (whole entry, unmodified, looked up): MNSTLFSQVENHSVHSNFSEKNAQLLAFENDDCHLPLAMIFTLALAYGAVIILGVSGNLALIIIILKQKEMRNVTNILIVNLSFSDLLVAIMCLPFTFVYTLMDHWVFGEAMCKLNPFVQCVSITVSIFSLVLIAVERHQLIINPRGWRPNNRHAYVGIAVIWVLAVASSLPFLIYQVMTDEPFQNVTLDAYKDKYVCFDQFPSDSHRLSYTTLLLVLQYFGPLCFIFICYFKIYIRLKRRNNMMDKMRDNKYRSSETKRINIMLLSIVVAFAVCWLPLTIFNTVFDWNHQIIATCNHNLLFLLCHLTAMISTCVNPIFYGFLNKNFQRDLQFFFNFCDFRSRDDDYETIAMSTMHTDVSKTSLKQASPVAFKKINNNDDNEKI
RET: Proto-oncogene tyrosine-protein kinase receptor Ret (RET, Homo sapiens, UniProt P07949)
Chain of UniProt P07949 (whole entry, looked up): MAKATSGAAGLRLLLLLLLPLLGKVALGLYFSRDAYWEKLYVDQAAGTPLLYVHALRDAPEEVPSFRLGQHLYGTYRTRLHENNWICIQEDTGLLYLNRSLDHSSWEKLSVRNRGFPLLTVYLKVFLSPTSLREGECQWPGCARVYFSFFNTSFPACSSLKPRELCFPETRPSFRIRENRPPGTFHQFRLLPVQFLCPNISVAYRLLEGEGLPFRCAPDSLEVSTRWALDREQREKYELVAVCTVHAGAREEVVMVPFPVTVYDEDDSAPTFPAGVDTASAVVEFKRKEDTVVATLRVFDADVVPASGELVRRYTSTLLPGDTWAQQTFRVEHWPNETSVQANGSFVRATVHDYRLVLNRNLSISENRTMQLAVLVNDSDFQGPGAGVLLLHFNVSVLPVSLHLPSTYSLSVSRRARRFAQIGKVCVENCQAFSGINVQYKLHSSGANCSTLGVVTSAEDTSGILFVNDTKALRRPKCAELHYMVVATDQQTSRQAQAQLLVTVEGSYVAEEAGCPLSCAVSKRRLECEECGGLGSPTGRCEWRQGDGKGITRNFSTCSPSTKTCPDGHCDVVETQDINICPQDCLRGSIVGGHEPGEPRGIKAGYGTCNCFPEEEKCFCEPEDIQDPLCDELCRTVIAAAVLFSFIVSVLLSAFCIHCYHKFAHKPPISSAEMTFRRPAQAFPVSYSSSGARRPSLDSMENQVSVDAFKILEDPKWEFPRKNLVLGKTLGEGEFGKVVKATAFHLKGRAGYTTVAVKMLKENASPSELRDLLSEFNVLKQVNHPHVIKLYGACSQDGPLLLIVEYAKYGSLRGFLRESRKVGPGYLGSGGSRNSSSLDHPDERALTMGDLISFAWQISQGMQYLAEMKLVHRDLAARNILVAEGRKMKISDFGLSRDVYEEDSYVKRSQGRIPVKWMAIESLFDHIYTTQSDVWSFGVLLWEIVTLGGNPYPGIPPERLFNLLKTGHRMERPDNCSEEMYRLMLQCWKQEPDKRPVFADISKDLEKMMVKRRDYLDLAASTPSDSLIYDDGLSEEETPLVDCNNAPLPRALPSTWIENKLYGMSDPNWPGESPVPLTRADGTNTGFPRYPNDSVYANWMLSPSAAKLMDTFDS
Chain of UniProt P06756 (whole entry, looked up): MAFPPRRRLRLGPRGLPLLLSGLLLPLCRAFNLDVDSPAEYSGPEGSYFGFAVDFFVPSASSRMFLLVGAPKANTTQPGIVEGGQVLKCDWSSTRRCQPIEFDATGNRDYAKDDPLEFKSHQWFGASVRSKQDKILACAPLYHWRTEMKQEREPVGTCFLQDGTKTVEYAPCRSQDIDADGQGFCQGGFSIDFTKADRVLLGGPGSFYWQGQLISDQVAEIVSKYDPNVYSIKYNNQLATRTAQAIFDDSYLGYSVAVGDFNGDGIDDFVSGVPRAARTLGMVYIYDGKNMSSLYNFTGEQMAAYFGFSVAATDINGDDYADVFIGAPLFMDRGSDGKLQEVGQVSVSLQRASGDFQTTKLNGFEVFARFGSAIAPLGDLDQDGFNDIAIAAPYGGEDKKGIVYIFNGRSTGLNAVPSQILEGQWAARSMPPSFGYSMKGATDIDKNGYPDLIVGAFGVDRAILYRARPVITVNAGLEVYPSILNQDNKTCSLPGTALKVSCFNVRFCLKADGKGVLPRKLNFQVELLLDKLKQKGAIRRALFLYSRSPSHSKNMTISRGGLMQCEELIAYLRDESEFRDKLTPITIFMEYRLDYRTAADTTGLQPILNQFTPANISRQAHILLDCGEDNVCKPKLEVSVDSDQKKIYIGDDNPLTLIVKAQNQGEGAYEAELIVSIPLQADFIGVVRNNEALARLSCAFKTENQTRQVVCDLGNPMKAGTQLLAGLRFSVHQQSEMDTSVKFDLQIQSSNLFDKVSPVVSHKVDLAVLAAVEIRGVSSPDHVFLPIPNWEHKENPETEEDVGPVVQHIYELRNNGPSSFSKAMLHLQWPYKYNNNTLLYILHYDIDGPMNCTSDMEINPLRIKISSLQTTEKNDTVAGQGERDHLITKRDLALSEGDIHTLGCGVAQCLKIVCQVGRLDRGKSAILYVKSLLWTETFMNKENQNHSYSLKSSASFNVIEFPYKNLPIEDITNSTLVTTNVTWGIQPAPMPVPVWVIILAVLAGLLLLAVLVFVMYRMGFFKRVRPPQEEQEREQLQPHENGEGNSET
Chain of UniProt P30550 (whole entry, looked up): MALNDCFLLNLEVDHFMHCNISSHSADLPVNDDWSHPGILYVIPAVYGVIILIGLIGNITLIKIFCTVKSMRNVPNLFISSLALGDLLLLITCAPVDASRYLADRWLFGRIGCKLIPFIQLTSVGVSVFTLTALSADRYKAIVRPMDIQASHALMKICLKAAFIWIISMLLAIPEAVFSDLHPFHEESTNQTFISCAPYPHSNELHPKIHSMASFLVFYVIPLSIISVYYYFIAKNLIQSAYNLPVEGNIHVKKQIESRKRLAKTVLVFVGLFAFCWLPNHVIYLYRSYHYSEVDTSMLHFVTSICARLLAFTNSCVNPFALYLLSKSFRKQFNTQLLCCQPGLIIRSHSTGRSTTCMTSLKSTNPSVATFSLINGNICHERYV
Chain of UniProt Q13526 (whole entry, looked up): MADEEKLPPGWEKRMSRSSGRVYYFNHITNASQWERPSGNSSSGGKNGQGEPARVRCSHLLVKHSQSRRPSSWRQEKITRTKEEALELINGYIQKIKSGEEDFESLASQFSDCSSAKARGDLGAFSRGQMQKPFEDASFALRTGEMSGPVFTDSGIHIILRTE
Chain of UniProt P00383 (whole entry, looked up): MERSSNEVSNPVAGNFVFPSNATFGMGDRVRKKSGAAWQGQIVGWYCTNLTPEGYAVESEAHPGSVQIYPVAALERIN
Chain of UniProt O15244 (whole entry, looked up): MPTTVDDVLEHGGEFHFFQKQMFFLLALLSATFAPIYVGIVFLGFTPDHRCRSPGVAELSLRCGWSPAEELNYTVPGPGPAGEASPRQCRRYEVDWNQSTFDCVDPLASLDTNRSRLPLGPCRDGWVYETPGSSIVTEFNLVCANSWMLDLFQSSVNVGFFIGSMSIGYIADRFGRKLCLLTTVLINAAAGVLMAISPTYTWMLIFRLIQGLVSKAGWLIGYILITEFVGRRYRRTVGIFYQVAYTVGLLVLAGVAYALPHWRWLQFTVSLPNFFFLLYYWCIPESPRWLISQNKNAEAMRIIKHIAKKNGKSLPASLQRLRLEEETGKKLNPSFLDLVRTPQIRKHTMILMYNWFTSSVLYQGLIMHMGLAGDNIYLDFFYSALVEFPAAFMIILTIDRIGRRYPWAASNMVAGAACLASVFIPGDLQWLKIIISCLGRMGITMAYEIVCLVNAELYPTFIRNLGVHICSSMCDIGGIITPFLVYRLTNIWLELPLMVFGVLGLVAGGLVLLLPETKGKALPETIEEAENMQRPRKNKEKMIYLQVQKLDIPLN
Chain of UniProt P97612 (whole entry, looked up): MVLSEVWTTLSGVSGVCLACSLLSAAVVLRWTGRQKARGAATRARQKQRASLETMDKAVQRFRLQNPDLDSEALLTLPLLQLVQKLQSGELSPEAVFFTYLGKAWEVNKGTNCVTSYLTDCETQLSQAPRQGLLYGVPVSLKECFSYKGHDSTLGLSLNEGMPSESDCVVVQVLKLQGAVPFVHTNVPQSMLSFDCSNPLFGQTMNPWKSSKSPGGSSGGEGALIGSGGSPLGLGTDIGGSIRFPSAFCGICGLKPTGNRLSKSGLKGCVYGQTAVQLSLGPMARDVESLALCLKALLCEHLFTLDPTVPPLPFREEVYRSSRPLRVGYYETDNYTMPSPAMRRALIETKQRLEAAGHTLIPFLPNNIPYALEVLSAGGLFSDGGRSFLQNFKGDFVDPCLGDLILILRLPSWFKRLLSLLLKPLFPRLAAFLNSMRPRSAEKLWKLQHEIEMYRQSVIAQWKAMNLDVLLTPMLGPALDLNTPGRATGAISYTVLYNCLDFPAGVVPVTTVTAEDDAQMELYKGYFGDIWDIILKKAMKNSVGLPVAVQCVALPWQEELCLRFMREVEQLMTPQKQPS
Chain of UniProt C7FF04 (whole entry, looked up): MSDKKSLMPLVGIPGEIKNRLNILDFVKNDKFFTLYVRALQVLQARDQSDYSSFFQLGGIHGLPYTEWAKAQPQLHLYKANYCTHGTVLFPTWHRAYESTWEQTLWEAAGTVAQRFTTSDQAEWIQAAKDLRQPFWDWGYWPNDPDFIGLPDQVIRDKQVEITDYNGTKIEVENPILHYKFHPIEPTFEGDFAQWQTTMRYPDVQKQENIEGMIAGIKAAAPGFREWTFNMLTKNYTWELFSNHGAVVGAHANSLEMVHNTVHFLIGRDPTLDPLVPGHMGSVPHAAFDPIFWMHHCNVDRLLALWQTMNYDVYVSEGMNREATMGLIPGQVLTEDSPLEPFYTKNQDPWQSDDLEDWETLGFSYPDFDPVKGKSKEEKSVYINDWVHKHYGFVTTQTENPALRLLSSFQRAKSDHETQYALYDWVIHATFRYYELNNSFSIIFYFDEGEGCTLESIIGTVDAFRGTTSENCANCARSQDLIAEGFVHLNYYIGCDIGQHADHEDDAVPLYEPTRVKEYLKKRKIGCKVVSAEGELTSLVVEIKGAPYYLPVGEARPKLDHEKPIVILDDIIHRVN

With `C[C@H](OP(=O)(O)O)[C@H]1NC(=O)[C@H](CCCNC(=N)N)NC(=O)[C@@H](CCCNC(=N)N)NC(=O)[C@H](CCCNC(=N)N)NC(=O)[C@@H](Cc2ccc3ccccc3c2)NC(=O)[C@H](Cc2ccc3ccccc3c2)NC(=O)[C@@H]2CCCCN2C1=O` the IC50 was over 10 µM (PIN1 (Homo sapiens, UniProt Q13526); fluorescence anisotropy competition; with: FITC-labelled probe).
For `CCC(=O)NCCCCNC(=O)NCc1ccc(CNC(=O)[C@@H](CCCNC(=N)N)NC(=O)C(c2ccccc2)c2ccccc2)cc1`, the Kb was 5.54 µM and 10.7 µM (NPY1R D287N; antagonist).
`Cc1ccc2oc(-c3c4c(N)n[nH]c(=O)c4nn3-c3ccc(NC(=O)/C=C/CN(C)C)cc3)c(C)c2c1` has an IC50 of over 1 µM (RET; enzyme activity, inhibitor, ELISA).
With `CCOC(=O)CNC(=O)/N=C(/N)NCCC[C@@H](NC(=O)C(c1ccccc1)c1ccccc1)C(=O)NCc1ccc(O)cc1` the Kb was 0.002 µM and < 0.0013 µM (NPY1R D287N; antagonist).
The IC50 of `CC(C)C[C@@H](CN[C@@H](Cc1ccc(Cl)cc1)C(N)=O)NC(=O)[C@H](Cc1c[nH]cn1)NC(=O)CNC(=O)[C@@H](NC(=O)[C@H](C)NC(=O)[C@H](Cc1c[nH]c2ccccc12)NC(=O)[C@H](CCC(N)=O)NC(=O)[C@H](N)Cc1ccccc1)C(C)C` is reported as 0.02 ± 0.001 µM (GRPR (Homo sapiens, UniProt P30550); inositol phosphate generation, antagonist; HuTu80; with: GRP).
`Cc1ccc2c(c1Br)C(O)(CC(=O)c1ccc3c(c1)OCO3)C(=O)N2` (stereo not shown) has an IC50 of over 1000 µM (UAP1 (Homo sapiens, UniProt Q16222); enzyme activity, inhibitor, absorbance).
The IC50 of `COC(=O)C[C@H](NC(=O)[C@H](C)NC(=O)[C@@H](NC(=O)OCc1ccccc1)C(C)C)C(=O)CF` is reported as 0.006 µM (Caspase-7 (CASP7, Homo sapiens, UniProt P55210); enzyme activity, inhibitor, fluorescence).
The IC50 of `COc1cc(O)cc(-c2cc3cc(O)c(OC)cc3o2)c1` is reported as 45.8 µM (PPO3 (Agaricus bisporus, UniProt C7FF04); enzyme activity, inhibitor, absorbance; pH 6.8).
For `[64Cu+2].c1cnc(CNCc2ccc(CN3CCCN4CCNCCCN(CC4)CC3)cc2)nc1`, the tissue uptake was 6.94 ± 1.69 %ID/g (CXCR4; NOD/SCID mouse, U87 and U87-stb-CXCR4 xenografts, lungs; iv, 240 min, ex vivo).
`COc1cc(CNC(=O)C[C@H](C)CCC=C(C)C)ccc1OCc1cn(-c2cccc(C(F)(F)F)c2)nn1` has a growth percent of 104% (UACC-257 melanoma cells; SRB; 10 µM, 48 h).
`CCCN(CCC)c1[nH]cnc2ncnc1-2` gave an IC50 of 268 µM (Chemotaxis protein CheA (Escherichia coli, UniProt P07363); enzyme activity, inhibitor, radiometric).
`O=C(NCCc1ccccn1)[C@@H]1Cc2ccccc2CN1S(=O)(=O)c1ccc2ccccc2c1` gave an IC50 of 11.4 µM (CACNA1C (Homo sapiens, UniProt Q13936); calcium signal, fluorescence).
`O=C(OC(C(F)(F)F)C(F)(F)F)N1CCC(CCn2nc3ccccc3n2)CC1` gave an IC50 of over 10 µM (Faah (Rattus norvegicus, UniProt P97612); enzyme activity, inhibitor).
The IC50 of `C[C@@H]1O[C@@H](OCc2cc(O)c3c(c2)[C@](O)([C@@H]2O[C@H](CO)[C@@H](O)[C@H](O)[C@H]2O)c2cccc(O)c2C3=O)[C@H](O)[C@H](O)[C@H]1O` is reported as 53.9 ± 0.95 µM (IDO1 (Homo sapiens, UniProt P14902); kynurenine formation, inhibitor).
`COC(=O)N1CCC(CN2CCC(CNC(=O)c3cccc4[nH]c(C(C)C)nc34)CC2)CC1` has an IC50 of over 10 µM (SLC22A2 (Homo sapiens, UniProt O15244); transporter uptake, inhibitor).
With `COc1cc(CNC(=O)C[C@H](C)CCC=C(C)C)ccc1OCc1cn(-c2cccc([N+](=O)[O-])c2)nn1` the growth percent was 73.2% (SF-268 CNS cancer cells; SRB; 10 µM, 48 h).
`C[C@@H]1NC(=O)[C@H](CCCNC(=N)N)NC(=O)[C@H](CCCCN)NC(=O)[C@@H](Cc2ccccc2)NC(=O)[C@H](CC(=O)O)NC1=O` has an IC50 of over 10 µM (Integrin alpha-V/beta-5 (Homo sapiens, UniProt P06756+P18084); fibronectin binding, inhibitor; 3 h, with: biotinylated fibronectin).
`COCCCn1nc(I)c2c(N)ncnc21` gave an IC50 of 1.9 µM (RET; enzyme activity, inhibitor).
For `O=C(O)c1ccc2nc(-c3ccc(OCCCCOc4ccc(-c5nc6ccc(C(=O)O)cc6[nH]5)cc4)cc3)[nH]c2c1`, the IC50 was 60 ± 10 µM (Dihydrofolate reductase type 2 (Escherichia coli, UniProt P00383); enzyme activity, inhibitor; pH 7).

For quick reference, copied from above:
The IC50 of `C[C@@H]1O[C@@H](OCc2cc(O)c3c(c2)[C@](O)([C@@H]2O[C@H](CO)[C@@H](O)[C@H](O)[C@H]2O)c2cccc(O)c2C3=O)[C@H](O)[C@H](O)[C@H]1O` is reported as 53.9 ± 0.95 µM (IDO1 (Homo sapiens, UniProt P14902); kynurenine formation, inhibitor).
`COC(=O)N1CCC(CN2CCC(CNC(=O)c3cccc4[nH]c(C(C)C)nc34)CC2)CC1` has an IC50 of over 10 µM (SLC22A2 (Homo sapiens, UniProt O15244); transporter uptake, inhibitor).
With `COc1cc(CNC(=O)C[C@H](C)CCC=C(C)C)ccc1OCc1cn(-c2cccc([N+](=O)[O-])c2)nn1` the growth percent was 73.2% (SF-268 CNS cancer cells; SRB; 10 µM, 48 h).
